Published values collected from several papers.
Every numbered part comes from another study and shows a few of its results, in no order. “And” joins repeats or separate records; there may be more than shown.
Sequence of UniProt P00519 (whole entry, looked up): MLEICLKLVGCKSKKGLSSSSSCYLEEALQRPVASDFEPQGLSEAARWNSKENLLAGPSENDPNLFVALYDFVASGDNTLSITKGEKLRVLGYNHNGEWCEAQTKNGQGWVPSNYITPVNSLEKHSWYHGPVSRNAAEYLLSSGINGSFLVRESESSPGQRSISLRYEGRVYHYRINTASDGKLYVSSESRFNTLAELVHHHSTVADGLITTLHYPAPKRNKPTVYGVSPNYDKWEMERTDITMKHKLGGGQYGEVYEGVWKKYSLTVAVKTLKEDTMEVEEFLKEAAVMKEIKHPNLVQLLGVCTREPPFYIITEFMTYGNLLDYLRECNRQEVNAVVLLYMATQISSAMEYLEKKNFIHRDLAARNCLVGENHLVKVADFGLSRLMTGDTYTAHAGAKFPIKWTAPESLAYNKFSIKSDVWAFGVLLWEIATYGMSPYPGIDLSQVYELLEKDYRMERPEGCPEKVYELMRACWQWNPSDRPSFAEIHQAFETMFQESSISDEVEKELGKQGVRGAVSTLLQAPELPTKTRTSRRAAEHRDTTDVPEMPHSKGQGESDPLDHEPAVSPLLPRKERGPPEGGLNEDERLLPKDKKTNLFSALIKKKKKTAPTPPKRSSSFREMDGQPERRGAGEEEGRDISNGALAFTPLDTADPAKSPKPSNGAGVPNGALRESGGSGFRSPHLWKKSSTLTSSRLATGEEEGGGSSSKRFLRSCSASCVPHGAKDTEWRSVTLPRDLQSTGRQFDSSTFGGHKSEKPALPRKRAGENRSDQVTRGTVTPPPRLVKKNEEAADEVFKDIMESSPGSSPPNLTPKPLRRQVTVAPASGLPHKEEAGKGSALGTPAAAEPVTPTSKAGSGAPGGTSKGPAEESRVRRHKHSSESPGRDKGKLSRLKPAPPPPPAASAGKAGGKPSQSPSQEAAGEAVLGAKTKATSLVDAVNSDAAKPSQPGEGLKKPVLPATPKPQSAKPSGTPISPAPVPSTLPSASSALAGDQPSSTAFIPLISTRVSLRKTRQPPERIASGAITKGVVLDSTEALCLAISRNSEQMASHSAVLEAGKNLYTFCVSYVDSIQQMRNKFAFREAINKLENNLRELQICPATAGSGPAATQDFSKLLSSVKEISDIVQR
Sequence of UniProt P11802 (whole entry, looked up): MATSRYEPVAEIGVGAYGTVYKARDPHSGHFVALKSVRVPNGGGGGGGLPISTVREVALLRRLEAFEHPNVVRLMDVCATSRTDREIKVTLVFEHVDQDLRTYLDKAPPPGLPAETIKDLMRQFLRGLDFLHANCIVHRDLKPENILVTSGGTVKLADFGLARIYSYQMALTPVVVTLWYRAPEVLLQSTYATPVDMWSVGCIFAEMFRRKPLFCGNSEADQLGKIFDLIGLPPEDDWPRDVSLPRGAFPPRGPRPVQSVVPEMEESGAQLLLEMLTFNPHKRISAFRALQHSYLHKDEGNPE
Sequence of UniProt Q8TD08 (whole entry, looked up): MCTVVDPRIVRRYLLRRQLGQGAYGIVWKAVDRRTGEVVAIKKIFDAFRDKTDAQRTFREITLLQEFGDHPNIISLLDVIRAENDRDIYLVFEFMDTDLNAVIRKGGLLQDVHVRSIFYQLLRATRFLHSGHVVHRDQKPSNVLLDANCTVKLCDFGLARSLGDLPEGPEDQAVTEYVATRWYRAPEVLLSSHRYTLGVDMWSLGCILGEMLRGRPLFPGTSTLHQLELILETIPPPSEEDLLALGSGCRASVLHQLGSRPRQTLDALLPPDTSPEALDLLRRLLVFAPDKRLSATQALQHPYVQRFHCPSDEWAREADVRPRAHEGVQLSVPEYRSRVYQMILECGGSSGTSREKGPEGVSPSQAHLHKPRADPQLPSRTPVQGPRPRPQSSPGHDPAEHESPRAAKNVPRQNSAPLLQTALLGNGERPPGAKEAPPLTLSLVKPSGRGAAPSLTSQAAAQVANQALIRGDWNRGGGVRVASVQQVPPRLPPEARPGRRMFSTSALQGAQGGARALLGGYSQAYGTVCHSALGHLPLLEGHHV
Sequence of UniProt P22612 (whole entry, looked up): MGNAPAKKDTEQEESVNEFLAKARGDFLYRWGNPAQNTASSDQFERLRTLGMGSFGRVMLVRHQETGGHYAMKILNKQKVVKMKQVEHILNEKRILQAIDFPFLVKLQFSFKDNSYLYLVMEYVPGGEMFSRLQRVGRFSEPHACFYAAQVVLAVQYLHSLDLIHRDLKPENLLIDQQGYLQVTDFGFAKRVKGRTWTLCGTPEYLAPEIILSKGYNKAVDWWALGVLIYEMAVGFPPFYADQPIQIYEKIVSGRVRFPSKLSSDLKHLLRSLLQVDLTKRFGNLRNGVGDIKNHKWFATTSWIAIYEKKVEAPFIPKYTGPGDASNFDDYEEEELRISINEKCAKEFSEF
Sequence of UniProt Q16816 (whole entry, looked up): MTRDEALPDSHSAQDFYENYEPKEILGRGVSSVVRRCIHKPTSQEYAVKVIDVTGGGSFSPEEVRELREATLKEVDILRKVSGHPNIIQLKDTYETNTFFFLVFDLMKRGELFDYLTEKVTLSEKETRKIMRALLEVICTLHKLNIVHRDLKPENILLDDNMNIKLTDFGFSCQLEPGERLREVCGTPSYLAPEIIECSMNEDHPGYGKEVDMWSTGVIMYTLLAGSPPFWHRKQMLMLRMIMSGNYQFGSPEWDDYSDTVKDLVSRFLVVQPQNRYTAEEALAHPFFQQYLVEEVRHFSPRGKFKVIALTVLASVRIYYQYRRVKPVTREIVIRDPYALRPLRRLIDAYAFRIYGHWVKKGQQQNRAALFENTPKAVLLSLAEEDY
Sequence of UniProt Q9H2X6 (whole entry, looked up): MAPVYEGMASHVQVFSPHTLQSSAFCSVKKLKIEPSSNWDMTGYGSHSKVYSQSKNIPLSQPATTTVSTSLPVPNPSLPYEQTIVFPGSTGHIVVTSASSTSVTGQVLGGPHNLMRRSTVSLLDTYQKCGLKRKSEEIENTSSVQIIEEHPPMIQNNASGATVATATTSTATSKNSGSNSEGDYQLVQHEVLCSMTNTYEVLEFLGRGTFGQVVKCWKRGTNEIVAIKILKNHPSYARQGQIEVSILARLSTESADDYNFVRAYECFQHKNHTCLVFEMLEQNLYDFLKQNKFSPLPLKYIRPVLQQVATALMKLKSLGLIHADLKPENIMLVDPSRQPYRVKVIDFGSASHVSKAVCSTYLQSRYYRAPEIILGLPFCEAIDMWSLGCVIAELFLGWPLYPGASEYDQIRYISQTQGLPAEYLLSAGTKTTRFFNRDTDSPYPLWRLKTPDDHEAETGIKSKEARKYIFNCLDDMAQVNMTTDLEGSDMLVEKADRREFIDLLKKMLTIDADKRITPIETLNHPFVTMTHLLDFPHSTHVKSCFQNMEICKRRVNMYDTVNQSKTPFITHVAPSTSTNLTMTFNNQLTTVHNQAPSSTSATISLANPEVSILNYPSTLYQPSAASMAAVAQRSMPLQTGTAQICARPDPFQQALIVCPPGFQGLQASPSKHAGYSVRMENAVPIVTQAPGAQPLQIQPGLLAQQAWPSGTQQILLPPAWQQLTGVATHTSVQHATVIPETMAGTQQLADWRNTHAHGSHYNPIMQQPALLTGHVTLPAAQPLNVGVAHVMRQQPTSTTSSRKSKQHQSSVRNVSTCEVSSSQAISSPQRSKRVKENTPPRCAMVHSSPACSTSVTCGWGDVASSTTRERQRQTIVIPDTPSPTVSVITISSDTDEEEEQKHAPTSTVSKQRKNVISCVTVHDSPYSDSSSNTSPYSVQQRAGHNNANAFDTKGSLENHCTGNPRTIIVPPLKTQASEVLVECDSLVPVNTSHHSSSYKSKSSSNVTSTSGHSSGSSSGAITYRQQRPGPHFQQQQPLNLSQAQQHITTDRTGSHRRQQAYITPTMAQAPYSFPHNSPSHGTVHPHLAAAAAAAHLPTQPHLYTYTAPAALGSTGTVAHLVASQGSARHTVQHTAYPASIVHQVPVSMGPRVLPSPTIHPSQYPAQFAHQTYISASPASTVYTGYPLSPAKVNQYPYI
Sequence of UniProt Q9BYT3 (whole entry, looked up): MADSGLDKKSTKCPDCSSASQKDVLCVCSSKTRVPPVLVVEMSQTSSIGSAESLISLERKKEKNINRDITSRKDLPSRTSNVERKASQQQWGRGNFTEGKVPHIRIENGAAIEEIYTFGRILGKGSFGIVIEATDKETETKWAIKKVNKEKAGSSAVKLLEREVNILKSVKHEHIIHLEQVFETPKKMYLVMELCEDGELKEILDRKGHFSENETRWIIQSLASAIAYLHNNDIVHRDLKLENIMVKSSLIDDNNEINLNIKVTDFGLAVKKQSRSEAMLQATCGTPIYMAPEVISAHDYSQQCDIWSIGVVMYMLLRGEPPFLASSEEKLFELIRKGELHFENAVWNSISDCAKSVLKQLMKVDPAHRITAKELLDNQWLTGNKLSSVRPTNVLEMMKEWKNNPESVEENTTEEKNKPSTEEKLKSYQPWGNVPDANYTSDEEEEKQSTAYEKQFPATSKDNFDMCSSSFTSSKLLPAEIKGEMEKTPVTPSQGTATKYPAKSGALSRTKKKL
Sequence of UniProt Q9H3Y6 (whole entry, looked up): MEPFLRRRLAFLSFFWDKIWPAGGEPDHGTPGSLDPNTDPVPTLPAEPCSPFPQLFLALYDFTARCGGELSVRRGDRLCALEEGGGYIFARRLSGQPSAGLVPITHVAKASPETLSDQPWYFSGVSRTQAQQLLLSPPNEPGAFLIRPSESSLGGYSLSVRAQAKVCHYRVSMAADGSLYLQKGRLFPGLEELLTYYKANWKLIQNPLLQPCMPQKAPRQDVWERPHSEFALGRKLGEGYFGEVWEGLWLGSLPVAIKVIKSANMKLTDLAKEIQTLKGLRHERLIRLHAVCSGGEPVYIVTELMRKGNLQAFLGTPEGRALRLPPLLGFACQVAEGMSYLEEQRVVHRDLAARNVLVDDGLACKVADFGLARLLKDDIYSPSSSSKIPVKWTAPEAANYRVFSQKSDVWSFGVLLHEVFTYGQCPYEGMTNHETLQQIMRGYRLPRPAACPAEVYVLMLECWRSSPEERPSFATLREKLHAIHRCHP

Set 1
SMILES: Cc1cc(C)c(-n2ccn3nc(-c4cccnc4)cc23)cc1NC(=O)c1cc(C#N)cc(S(F)(F)(F)(F)F)c1
Tested at: 0.1 µM
| target | effect on | technique | remaining binding |
| --- | --- | --- | --- |
| MAP4K3 (Homo sapiens, UniProt Q8IVH8) | cell-free assay | competition with immobilised ligand | 89.6% |
| DYRK1A (Homo sapiens, UniProt Q13627) | cell-free assay | competition with immobilised ligand | 82.8% |
| MARK4 (Homo sapiens, UniProt Q96L34) | cell-free assay | competition with immobilised ligand | 92.4% |
| MKNK2 (Homo sapiens, UniProt Q9HBH9) | cell-free assay | competition with immobilised ligand | 95% |
| TGFBR1 (Homo sapiens, UniProt P36897) | cell-free assay | competition with immobilised ligand | 98.2% |
| Ribosomal protein S6 kinase alpha-3, N-terminal kinase domain (RPS6KA3, Homo sapiens, UniProt P51812) | cell-free assay | competition with immobilised ligand | 84.4% |
| RIPK4 (Homo sapiens, UniProt P57078) | cell-free assay | competition with immobilised ligand | 62.9% |
| CDK13 (Homo sapiens, UniProt Q14004) | cell-free assay | competition with immobilised ligand | 59% |
| EGFR (Homo sapiens, UniProt P00533, L858R/T790M) | cell-free assay | competition with immobilised ligand | 100% |
| LCK (Homo sapiens, UniProt P06239) | cell-free assay | competition with immobilised ligand | 41.6% |
| Cyclin-dependent kinase 4, with cyclin D1 (CDK4, Homo sapiens, UniProt P11802) | cell-free assay | competition with immobilised ligand | 89.4% |
| AAK1 (Homo sapiens, UniProt Q2M2I8) | binding |  | 95.9% |
| MAPK15 (Homo sapiens, UniProt Q8TD08) | cell-free assay | competition with immobilised ligand | 94.1% |
| MAP3K14 (Homo sapiens, UniProt Q99558) | cell-free assay | competition with immobilised ligand | 100% |
| TSSK3 (Homo sapiens, UniProt Q96PN8) | cell-free assay | competition with immobilised ligand | 76.9% |
| EPHB3 (Homo sapiens, UniProt P54753) | cell-free assay | competition with immobilised ligand | 100% |
| Tyrosine-protein kinase ABL1, non-phosphorylated (ABL1, Homo sapiens, UniProt P00519) | cell-free assay | competition with immobilised ligand | 29.2% |
| PIK3CA (Homo sapiens, UniProt P42336, E545A) | cell-free assay | competition with immobilised ligand | 73% |
| CDK4 (Homo sapiens, UniProt P11802) | cell-free assay | competition with immobilised ligand | 82.4% |
| STK33 (Homo sapiens, UniProt Q9BYT3) | cell-free assay | competition with immobilised ligand | 100% |
| PRPF4B (Homo sapiens, UniProt Q13523) | cell-free assay | competition with immobilised ligand | 80.6% |
| ACVR2A (Homo sapiens, UniProt P27037) | cell-free assay | competition with immobilised ligand | 100% |
| WNK2 (Homo sapiens, UniProt Q9Y3S1) | cell-free assay | competition with immobilised ligand | 100% |
| EPHB1 (Homo sapiens, UniProt P54762) | cell-free assay | competition with immobilised ligand | 100% |

Set 2
Host: human
Sample: microsomes or S9
Tested at: 2 µM
Time: 0.5 h
| SMILES | remaining compound |
| --- | --- |
| Cc1sc(NC(=O)NCCC(=O)OC(C)C)c(C#N)c1C | 9.22% |
| Cc1c2c(=O)[nH]cnc2c(C(=O)c2ccccc2)n1-c1ccccc1 | 12.8% |
| Cc1ccc(C)c(-n2nnnc2SCc2nc3cc(C(F)(F)F)ccc3c(=O)[nH]2)c1 | 65.7% |
| Fc1ccc(-c2c(-n3cnnc3)nc3ccccc3c2Cl)cc1 | > 99% |
| CCN(CC)/C(=N\S(=O)(=O)c1ccccc1C)c1ccccc1 | 6.62% |
| CN(C)S(=O)(=O)c1cc2c(cc1N1CCN(c3ccccn3)CC1)Oc1ccccc1NC2=O | 0.694% |
| Cc1cc(S(=O)(=O)N[C@H]2CC[C@H]2NC2CCN(C(C)C)CC2)c(C)s1 | 20.4% |
| CCN(CC)CC/C=C/C1(O)c2ccccc2-c2ccccc21 | 82.1% |
| Cc1occc1C(=O)N1CCC2(CCc3nnc(C(C)C)n3CC2)CC1 | 80.9% |
| CC(C)=CCN1CCN(c2nc3ccccc3s2)CC1CCO (centres unmarked) | 0.0149% |
| Clc1ccc(OCCn2cnc(Cl)c2Cl)cc1 | 49.1% |

Set 3
SMILES: CC(C)C[C@H]1NC(=O)[C@H](N(C)C(=O)[C@@H](CC2CCC2)NC(=O)[C@H]2C[C@H](F)CN2C(=O)C2(C(F)(F)F)CC(F)(F)C2)CCCCNC(=O)C2(CC2)NC(=O)[C@@H](Cc2cc(Cl)ccc2Cl)N(C)C1=O
Technique: Vi-Cell counting
Time: 6 days
Reference: DMSO
| cell line | tested at | cell count |
| --- | --- | --- |
| NCI-H1299 | 20 nM | 1.03 and 0.92 |
| NCI-H446 | 20 nM | 0.969 and 1 and 1.01 |
| A549 | 2 µM | 1.03 and 0.896 and 1.01 |
| HCC4006 | 2 µM | 0.975 and 0.961 and 0.994 |

Set 4
Structure (SMILES): CS(=O)(=O)CCNCc1ccc(-c2ccc3ncnc(Nc4ccc(OCc5cccc(F)c5)c(Cl)c4)c3c2)o1
Effect on: enzyme activity
Mode: inhibitor
Tested at: 0.5 µM
Reference: control
| target | remaining activity [%] |
| --- | --- |
| SRMS (Homo sapiens, UniProt Q9H3Y6) | 97.9 |
| Cyclin-dependent kinase 1, with cyclin B (CDK1, Homo sapiens, UniProt P06493) | 100 |
| STK17A (Homo sapiens, UniProt Q9UEE5) | 89.7 |
| HIPK2 (Homo sapiens, UniProt Q9H2X6) | 104 |
| BLK (Homo sapiens, UniProt P51451) | 95.9 |
| WNK3 (Homo sapiens, UniProt Q9BYP7) | 104 |
| RPS6KA5 (Homo sapiens, UniProt O75582) | 98.3 |
| MAPKAPK3 (Homo sapiens, UniProt Q16644) | 103 |
| EPHA4 (Homo sapiens, UniProt P54764) | 101 |
| Cyclin-dependent kinase 6, with cyclin D3 (CDK6, Homo sapiens, UniProt Q00534) | 120 |
| TSSK2 (Homo sapiens, UniProt Q96PF2) | 89.9 |
| ABL1 (Homo sapiens, UniProt P00519) | 96.4 |
| PRKACG (Homo sapiens, UniProt P22612) | 110 |
| STK16 (Homo sapiens, UniProt O75716) | 97.1 |
| EPHB4 (Homo sapiens, UniProt P54760) | 94.1 |
| PHKG1 (Homo sapiens, UniProt Q16816) | 95.7 |
| HIPK4 (Homo sapiens, UniProt Q8NE63) | 108 |

For quick reference, copied from above (set 1):
| target | effect on | technique | remaining binding |
| --- | --- | --- | --- |
| Ribosomal protein S6 kinase alpha-3, N-terminal kinase domain (RPS6KA3, Homo sapiens, UniProt P51812) | cell-free assay | competition with immobilised ligand | 84.4% |
| RIPK4 (Homo sapiens, UniProt P57078) | cell-free assay | competition with immobilised ligand | 62.9% |
| CDK13 (Homo sapiens, UniProt Q14004) | cell-free assay | competition with immobilised ligand | 59% |
| EGFR (Homo sapiens, UniProt P00533, L858R/T790M) | cell-free assay | competition with immobilised ligand | 100% |
| LCK (Homo sapiens, UniProt P06239) | cell-free assay | competition with immobilised ligand | 41.6% |
| Cyclin-dependent kinase 4, with cyclin D1 (CDK4, Homo sapiens, UniProt P11802) | cell-free assay | competition with immobilised ligand | 89.4% |
| AAK1 (Homo sapiens, UniProt Q2M2I8) | binding |  | 95.9% |
